Results collected from several papers.
Each numbered part is a random draw from the data of one study; scales do not carry over between parts. Positions count from the first letter of the parent shown.

Series 1
Target: Prothrombin, mature alpha-thrombin (F2, Homo sapiens, UniProt P00734)
Technique: aptamer microarray, sandwich
Form: DNA with 2'F-ANA
Medium: in vitro
Tested at: 200 nM
Notes: whole 15-mer aptamer, many near background
Added: Cy3 exosite-II aptamer, 400 nM
Reading: higher = stronger binding
Measurement: mean fluorescence intensity
Strand: GGTTGGTGTGGTTGG
2'F-ANA at 4 6 7 9 11 13 14: 66.5 a.u.
2'F-ANA at 1 4 6 7 10 14 15: 47.2 a.u.
2'F-ANA at 2 3 8 11 13 14 15: 356 a.u.
2'F-ANA at 1 3 4 7 11 12 15: 300 a.u.
2'F-ANA at 2 3 9 10 11 12: 346 a.u.
2'F-ANA at 3 6 8 10 13 14 15: 363 a.u.
2'F-ANA at 2 3 4 6 11 12: 657 a.u.
2'F-ANA at 3 7 8 10 11 12 13 15: 613 a.u.
2'F-ANA at 2 4 5 12 13 15: 96.9 a.u.
2'F-ANA at 2 4 8 9 10 11 12 14: 61.8 a.u.
2'F-ANA at 1 2 4 5 9 10 12 13 14 15: 54 a.u.
2'F-ANA at 2 5 8 9 10 12 13 15: 47.9 a.u.
2'F-ANA at 3 5 14 15: 54.1 a.u.
2'F-ANA at 1 2 5 6 7 8 9 10 11 13 14: 55.8 a.u.
2'F-ANA at 4 5 6 10: 57.9 a.u.
2'F-ANA at 1 3 5 6 7 8 9 12 15: 147 a.u.
2'F-ANA at 2 3 4 5 9 15: 84.9 a.u.
2'F-ANA at 1 2 4 7 8 9 10 12 13 14: 49.2 a.u.
2'F-ANA at 1 2 3 5 6 8 12 13 15: 141 a.u.
2'F-ANA at 1 2 3 4 5 6 12 14: 48 a.u.
2'F-ANA at 2 4 6 7 8 10 11: 75.7 a.u.
2'F-ANA at 1 4 6 7 9 11: 87.5 a.u.
2'F-ANA at 2 3 4 8 9 11: 584 a.u.
2'F-ANA at 1 3 4 6 8 11 12 13 14 15: 72.6 a.u.
2'F-ANA at 1 2 3 5 7 8 9 10 11 12 13 14 15: 63.4 a.u.

Series 2
Target: UBE2C UBC core domain (UniProt O00762)
UniProt O00762, sequence (whole entry, looked up): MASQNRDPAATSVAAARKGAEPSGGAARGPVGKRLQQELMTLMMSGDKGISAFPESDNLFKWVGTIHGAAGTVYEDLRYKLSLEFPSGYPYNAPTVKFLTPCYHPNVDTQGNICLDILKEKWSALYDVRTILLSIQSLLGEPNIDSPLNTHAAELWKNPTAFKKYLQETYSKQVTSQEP
Technique: yeast two-hybrid
Medium: yeast
Notes: mostly zero background
Baseline: not given
Reading: higher = stronger interaction
Measurement: lacZ reporter activity
B1: SYTL4 RING domain (UniProt Q96C24); chain RGSQHYSDRTCARCQESLGRLSPKTNTCRGCNHLVCRDCRIQESNGTWRCKVCAKEIELKKAT
B2: RNF133 RING domain (UniProt Q8WVZ7); chain DEEINPNGDSCVICFERYKPNDIVRILTCKHFFHKNCIDPWILPHGTCPICKCDILKVLGIQ
B3: TRIM62 RING domain (UniProt Q9BVG3); chain MACSLKDELLCSICLSIYQDPVSLGCEHYFCRRCITEHWVRQEAQGARDCPECRRTFAEPALAP
B4: RBCK1 RING domain (UniProt Q9BYM8); chain SLVLNTEPAECPVCYSVLAPGEAVVLRECLHTFCRECLQGTIRNSQEAEVSCPFIDNTYSCSGKLLEREIK
B5: MAP3K1 RING domain (UniProt Q13233); chain NSIKDEEEQMCPICLLGMLDEESLTVCEDGCRNKLHHHCMSIWAEECRRNREPLICPLCRSKWRSHDFYS
B6: UBOX5 RING domain (UniProt O94941); chain EQPGSILGPECASCKRVFSPYFKKEPVYQLPCGHLLCRPCLGEKQRSLPMTCTACQRPVASQDVLR
B7: RNF121 RING domain (UniProt Q9H920); chain MPTKHLSDSVCAVCGQQIFVDVSEEGIIENTYRLSCNHVFHEFCIRGWCIVGKKQTCPYCKEKVDLKRMFS
AVPSGLEENLCKICMDSPIDCVLLECGHMVTCTKCGKRMNECPICRQYVIRAVHVF (RFFL RING domain (UniProt Q8WZ73)): 0
B1 (SYTL4 RING domain): 0
PEDRESLKSACVVCLSSFKSCVFLECGHVCSCTECYRALPEPKKCPICRQAITRVIPLY (MUL1 RING domain (UniProt Q969V5)): 0
B2 (RNF133 RING domain): 0
B3 (TRIM62 RING domain): 0
B4 (RBCK1 RING domain): 0
YQNEVDDDLVCHICLQPLLQPLDTPCGHTFCYKCLRNFLQEKDFCPLDRKRLHFKLCKK (LNX2 RING domain (UniProt Q8N448)): 0
AMYLQENGIDCPKCKFSYALARGGCMHFHCTQCRHQFCSGCYNAFYAKNKC (RNF31 RING domain (UniProt Q96EP0)): 0
B5 (MAP3K1 RING domain): 0
B6 (UBOX5 RING domain): 0
GSDDEEIPFKCFICRQSFQNPVVTKCRHYFCESCALQHFRTTPRCYVCDQQTNGVFNPA (RNF113A RING domain (UniProt O15541)): 0
NLSELTPYILCSICKGYLIDATTITECLHTFCKSCIVRHFYYSNRCPKCNIVVHQTQPLY (PCGF6 RING domain (UniProt Q9BYE7)): 0
B7 (RNF121 RING domain): 0

Series 3
Target: CCND1, cyclin fold, Cln2 fusion (human)
Technique: yeast growth competition, sequencing
Medium: yeast
Notes: weak parent motif
Baseline: not given
Reading: higher = stronger binding
Measurement: normalised enrichment score
Parent: ORC1 docking peptide (human); PRARKRLELGNLG
G13Q: -0.516
L9E: -0.233
L12P: 0.204
L9S: 0.25
L9P: -0.487
K5Q: -0.248
R2P: -0.239
G13A: -0.474
R2T: 0.417
P1G: -0.863
L9G: -0.15
L12H: 0.136
E8R: -1.08
R4V: 0.068
A3K: 0.4
L9W: -0.0232
R6T: 0.435
L12W: 0.629
R6P: 0.0806
K5H: -0.0553
L7I: 0.14
K5C: -0.22
E8D: 0.626
R6Y: 0.162
L12T: -0.0351

Series 4
Target: Histone acetyltransferase KAT6A, both winged helices, GST fusion (KAT6A, Homo sapiens, UniProt Q92794, residues 1-181)
Technique: protein binding microarray
Form: double-stranded DNA, one strand shown
Medium: in vitro
Tested at: not given
Notes: 8-mer, flanks averaged, mean of 2 arrays, mostly near background
Baseline: not given
Reading: higher = stronger binding
Measurement: E-score
Residues (chain): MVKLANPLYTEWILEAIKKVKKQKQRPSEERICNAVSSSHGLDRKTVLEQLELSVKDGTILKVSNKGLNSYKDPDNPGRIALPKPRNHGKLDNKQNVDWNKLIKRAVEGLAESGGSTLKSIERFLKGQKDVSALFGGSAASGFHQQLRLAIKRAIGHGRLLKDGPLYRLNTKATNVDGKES
ATATCGAC: -0.0477
AATGTCTC: 0.0469
AGCCAGTG: -0.141
ATCCGGTC: 0.0716
CCAGGGTC: -0.202
TTCACCAA: -0.00202
ATGCACGG: 0.138
CACCTTTA: -0.116
ACACTTGG: -0.189
ACCTTACC: -0.145
ACGTTGGA: -0.123
CGCCCATA: 0.0892
ACCGTTTC: 0.146
CCGGTACA: 0.177
AAAGTGTA: -0.0787
ACGGCGCA: 0.298
AGTGGAAG: -0.121
GTCAGCGA: 0.00336
CCTAGCGA: -0.0661
ATGCAGCC: -0.156
CCCTTTGC: 0.0198
ATGGACCA: -0.16
ACTGGCGG: 0.131
CTACGTTA: -0.00932

A few entries again (series 4):
ATCCGGTC: 0.0716
CCAGGGTC: -0.202
TTCACCAA: -0.00202
ATGCACGG: 0.138
CACCTTTA: -0.116
ACACTTGG: -0.189
ACCTTACC: -0.145
ACGTTGGA: -0.123
